Published values collected from several papers.
Each numbered part is a random draw from the data of one study; scales do not carry over between parts.

Set 1 — technique: universal PBM; form: double-stranded DNA, one strand shown; medium: in vitro; tested at: not given; direction: higher = stronger binding
Target: Sal-like protein 4, full length isoform B (SALL4, Homo sapiens, UniProt Q9UJQ4-2, residues 1-616)
Setting: 8-mer, flanks averaged, mean of replicates
Residues (chain): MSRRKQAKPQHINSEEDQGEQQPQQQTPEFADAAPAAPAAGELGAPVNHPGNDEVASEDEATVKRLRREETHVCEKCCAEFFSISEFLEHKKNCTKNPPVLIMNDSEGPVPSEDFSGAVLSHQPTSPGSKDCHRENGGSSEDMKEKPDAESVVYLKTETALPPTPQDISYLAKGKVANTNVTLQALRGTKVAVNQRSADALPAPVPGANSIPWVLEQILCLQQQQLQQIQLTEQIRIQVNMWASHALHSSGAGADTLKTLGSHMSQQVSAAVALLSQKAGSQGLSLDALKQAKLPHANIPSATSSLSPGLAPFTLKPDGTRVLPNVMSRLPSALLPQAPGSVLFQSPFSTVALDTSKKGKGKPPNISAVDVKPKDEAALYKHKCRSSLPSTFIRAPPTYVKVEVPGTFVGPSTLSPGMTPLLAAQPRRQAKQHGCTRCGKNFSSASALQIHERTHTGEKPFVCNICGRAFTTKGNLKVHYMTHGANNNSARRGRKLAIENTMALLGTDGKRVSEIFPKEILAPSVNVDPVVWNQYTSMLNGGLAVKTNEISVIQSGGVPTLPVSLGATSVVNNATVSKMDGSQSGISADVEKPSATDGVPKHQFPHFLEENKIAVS
Oligonucleotide | E-score
CCATTACG | -0.0981
AAGTCCTG | -0.149
AATTTCAT | 0.308
AATAGAAA | 0.212
ATATGCCC | 0.0551
GGTCAACC | -0.296
GTCGAGGA | -0.156
AGTAACAC | 0.0863
ACGAATCA | 0.0237
AGCGACGG | -0.275
ATCTGTCA | 0.118
AAAGCGAG | 0.0238
GTGGACAA | 0.0866
AACTGACA | -0.0419
GGCCACCC | -0.345
CCTTATTC | 0.113
GGCAATAC | 0.00133
AGCCCCGA | -0.23
AACGAGGA | -0.0261
CCGCACCG | -0.304
CTTTACTA | 0.157
CCACGTAG | -0.316

Set 2 — technique: RNA Bind-n-Seq; form: RNA; medium: in vitro; tested at: 365 nM; relative to: no-protein control; direction: higher = stronger binding
Target: RNA binding protein fox-1 homolog 2, RRM domain, GST-SBP tag (RBFOX2, Homo sapiens, UniProt O43251-10, residues 100-194)
Setting: natural RNA segment, single round, ends assumed
Shared flanks, not repeated: GGGAGUUCUACAGUCCGACGAUC … UGGAAUUCUCGGGUGCCAA
Target sequence (chain): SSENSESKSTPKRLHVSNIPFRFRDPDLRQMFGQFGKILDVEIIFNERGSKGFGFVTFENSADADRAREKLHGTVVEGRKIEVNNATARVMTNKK
Oligonucleotide | RBNS enrichment (R)
UAAGACCCUGCCCCACUCUCUGAGCUGCCACUAGAGCUGCCACCUUCCCUCCUGUAAUUAUUUUCUAUUUUUGUAAACUUGUUGCAUUUUUAUAUGAUUUUCUUGACUGC | 1.36
ACACGCAUUGUCCUUGUCAUUUGGGCCCCGAGCUCUGACCCUCGUGUCUGACGCGGCCACCUCUUUCUGGAGGGGCUGAGGACAGAUGUGCCUGCUUGUGGAGACCAGGC | 0.557
AUUCUUACUUGUUAGAAAUGUAGAAUGAACUUUGUUUGUAAUCCUUAAAUUAAAAUGUGGUAAGUAGGAAGCAAGAACUUAUUCUGUGUUUUUACGCAGCCAUACACUUA | 0.362
CAAUCCAGCCCACAAAUCCACAUGGCUGUUCCCAGCAGUGCUGUGGUACACUGUGACAGUGGCUCUAGGGGAGGAGGCCAGGAGCCUGGCCACAGUGUUGGCUGGACUCU | 0.266
GGGCAGGGCCCAUCCUAAGCAGCUUCCAAGUCCCACAAAGGUGGCUUGUGGGAGGAUUUGGAAGGAGCUGCAUUGUGGGCGGGGAGUGUGUGGGUUGGGUUCGUACCAGC | 0.801
CUGUGUAGCCCUGGCUGUCCUGGAACUCGCUCUGUAGACCAGGCUGGCCUCAAACUUAGAGAUCUGCCUGACUCUGCCUUUGAGGGCUGGGACGAAUGCCACCACUGCCC | 0.311
CUGGACACUUCAGUCCAGCUCUCUCCUGACUGGGGCUUGCGACUCACAGGAUUGCAUCGUCCCAGCUGCUAACUUGGGGCCGGGGCCCCUCCCUUCCACAUAUACCUUGG | 0.269
UGUUUAAAAGUAAAUGAUUUGGGAACUGACAAUGUGUCAGAAAAUAUAUGUUCAUUUAUCAUUUUAAAAUCUUGUAUAAUUUGCCACUGUAUUCAUUUAUGCCUAAAUCU | 0.751
UUGGUGCCUCUUUAUUUUAAAAAAUUUGAAGAAAAGAGCCACCUCAUAUUCAUAGGGUGUGUAUUUUUUGAGUGUGAGCAUUUAAUUGAAAAUAAGAAAGCUAUGAAGUA | 0.752
GGGACACCUAGGUGGGAGCAUCGCUUGAAGCCAGGAGUUCAAGACCAGCUUGGGCAACGUAGUGAGACCCCUAUCUCUACAAAAAAUAAAAAAAUUAGCUGGGUGUGAUG | 0.674
GAAAUUUACAUAUCAAUGUUUCUACAGUAUUGUUUGCUAAUUUUUAAAUAAAGUCAUGAUCAGUGUGCAUUUGUGAUUAUAUGUGUACUCAUUCUCUUACCUAGCGAACA | 0.407
UUUUUUCAUUUAUCUGUGGAAACAACAGAGGUCUCUCUCUAAACCUGUUUUGUGUCAGUUUGGUGUGAGGUGACAUGGAAAAAUGUUGAUGAUUGUAGAUUAAGCUGAAA | 0.68

Set 3 — technique: protein-binding microarray; form: double-stranded DNA, one strand shown; medium: in vitro; tested at: 250 nM; setting: 60-bp whole probe; with: salmon DNA 0.4 mg/ml; relative to: random background probes; direction: higher = stronger binding; shared flanks, not repeated: GCCTAGCAC … GTCTTGATTCGCTTGACGCTGCTG
Target: Interferon regulatory factor 7, full length, phosphomimetic (IRF7, Homo sapiens, UniProt Q92985, residues 1-503, S101K/S471D/S472D/S475D/S476D/S477D/S483D/S484D/S487D)
Chain of UniProt Q92985 (whole entry, unmodified, looked up): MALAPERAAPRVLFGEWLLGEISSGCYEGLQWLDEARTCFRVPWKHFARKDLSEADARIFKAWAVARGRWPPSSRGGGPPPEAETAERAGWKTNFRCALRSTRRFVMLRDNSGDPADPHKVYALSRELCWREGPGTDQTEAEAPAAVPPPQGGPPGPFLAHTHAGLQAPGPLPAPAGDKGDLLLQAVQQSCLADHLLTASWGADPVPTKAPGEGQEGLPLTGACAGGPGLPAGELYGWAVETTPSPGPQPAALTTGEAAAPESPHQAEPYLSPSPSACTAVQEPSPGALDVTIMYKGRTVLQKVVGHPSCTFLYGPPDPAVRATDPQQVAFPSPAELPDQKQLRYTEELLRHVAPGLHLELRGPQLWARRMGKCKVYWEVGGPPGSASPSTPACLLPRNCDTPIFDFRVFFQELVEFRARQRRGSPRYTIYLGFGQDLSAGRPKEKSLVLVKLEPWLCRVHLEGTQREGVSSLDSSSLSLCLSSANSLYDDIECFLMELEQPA
Oligonucleotide | log fluorescence [z-score]
GCCCCACCCACTCTGGCCCCGTGCTAG | 0.814
CCTCCTTACTTTATGTAGGAGTGCTAG | 0.449
TCATTTTTAGATTTTTTACTGTGCTAG | 0.629
TTAGGTTTCGGTCTCAGTTAGTGCTAG | 8.07
TCTGTTGCCCGTATCTAGGTGTGCTAG | 0.151
TGAGATATCAGTCTCGATTAGTGCTAG | 1.3
TTAGAACTGAATTTCGATTAGTGCTAG | 1.09
TTAGATTTCGGGTTTCGTTTAGTGCTA | 8.63
GAAGGTTTCGACTTTCGGGACGTGCTA | 10.4
GACGGACTGGCTTTCGGGACGTGCTAG | -0.539
TCACCTTACTTTATGTAACTGTGCTAG | 0.177
TCAGTCTTCACTCTGCTACTGTGCTAG | -0.14
TATATTCTATTCCTTTAACAGTGCTAG | 2.32
TCAGTTTCTCCTTTCGGACTGTGCTAG | 3.61
GTCCTTTTCTTTACTGATGGGTGCTAG | 2.2
GACGGTATCGACTTTCCGGACGTGCTA | 1.42
GACGATATCGGGTGTCGAGACGTGCTA | -0.379
TTAGGTTTCGACAGTGGGTTAGTGCTA | 1.66
AACGATTTCGGGTATCGAGACGTGCTA | 1
AACAGAGGAATGGATACAGAGTGCTAG | -0.164
TTTGCTTTCATTTATTTACTGTGCTAG | 0.734
TTAGATATCATACTGGATTAGTGCTAG | -0.199
TCATTTTAGCTTCTCAAACTGTGCTAG | 1.31
TTAGGACTGGACTGTCGGTTAGTGCTA | -0.301
GACGACCTCAGTATCGAGACGTGCTAG | 0.237

Set 4 — technique: RNA Bind-n-Seq; form: RNA; medium: in vitro; tested at: not given; relative to: input RNA pool; direction: higher = stronger binding
Target: RING finger protein unkempt homolog, zinc fingers 1-6, GST-SBP tag (UNK, Homo sapiens, UniProt Q9C0B0, residues 30-357)
Setting: RNA with constant flanks, human and mouse sites, ends assumed
Shared flanks, not repeated: GGGAGUUCUACAGUCCGACGAUC … CAACAGAGGAUUGAGCAUCA
Residues (chain): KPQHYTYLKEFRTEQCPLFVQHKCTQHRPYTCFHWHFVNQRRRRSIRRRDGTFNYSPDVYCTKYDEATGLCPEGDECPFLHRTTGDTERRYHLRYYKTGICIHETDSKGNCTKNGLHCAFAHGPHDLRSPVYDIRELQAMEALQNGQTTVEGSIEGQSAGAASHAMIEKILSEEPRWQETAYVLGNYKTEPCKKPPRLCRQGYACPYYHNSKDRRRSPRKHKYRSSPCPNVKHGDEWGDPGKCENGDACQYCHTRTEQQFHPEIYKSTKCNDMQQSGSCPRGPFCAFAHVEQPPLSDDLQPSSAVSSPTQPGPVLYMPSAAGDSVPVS
Oligonucleotide | bound/input enrichment [ratio]
CACAUCAAAUAUGCUGUCACCACUGGGGACCAUGGGAUUAUCCGAACUCUGGAUUUACCCAUCUAUGUCACCAGAGUGAAGGGCAAUAAUGUAUACUGCCUAGACAGAGAGUGUCGUCCU | 0.088
CGGAAGCACAUAGAGGAUGAAAAGCUCGUCCGCUACUUCUUGGACAAGACGCUGACUUCGAGGCUUGGAAUCCGCAUGUUGGCCACGCAUCACCUGGCGCUGCAUGAGGACAAGCCUGAC | 0.0482
UAUGAAGUGUAUAGUUCCUCAGCAGGACCUGCGGUCAGACAUAAGUGCCUUAGAGCAAUUCUUAGGAUAAUUUAUUUUGCGGAUGCUGAACUUCUGAAGGAUGUUCUGAAAAAUCAUGCU | 2.04
CCUGUUUGUGAAGGGGUGUCGAAGCUAGAAGAAUCCUCUAAAGCAACUCCUGCAGAGAUGGAUUUGGCCCACAACAGCCAAAGCAUGCACGCCUCUUCAGCUUCCAAAUCUGUGCUGGAG | 0.132
CUACAAGAUGUUCUGCAGUUGUUCAAGUUCUUUUGUGUUUUGUGGACCUAUGGUUCUAGCCUUUCAAAUCCACUUAACUGCACUGUGAAGUCAGAGCUGCAGACUCAAGCUCUUUACAUA | 0.143
AGAAGAAUAAAAAGAAGAGGAAAAAGGUUUUAUAUAAUGCCAAUAAAAAUGAUGAUUAUGACAAUGAAGAGAUCUUAACGUAUGAGGAAAUGUCACUUUAUCACCAGCCAGCAAAUAGGA | 0.959
GCUGCAAUCUAUAAUUCAUUUGUGUGAAAAGACAAAAUUACCAAUGACUUGAGUUCAGAGAUCCUAACAUAGCUAGGUGCUAUGGUGCAGACCCAUACCCACGGUCCCAGAUAAUUGAAA | 0.241
GCCUUGGAGUAGGUGGCAUAACCUUGUGCACAGAGAACUAGAAAAGGGGCAGAACCCCGGCCUUGCAGUUGUGGCAGGUUUCCACUGUGGUAAGCUAGGUUCAUUCCUCAUCAAGGAAUG | 0.197
GGCUGGCCCGUGUCACUGCCUCUGUCACCCAGCUAUCCUCGCACUCAAAGCCAUCCAACCUCAGCAGGCCUUCUCGGGCCCUGCCACCUGAAUAGGUCUGACCCCAGUCCCCACUCCCUU | 0.271
AUAAAUUUGUAAAUCCUAAUUCAAAGAUGGCUCAUGUGUGAGGGCAUUGAGUUUGAUUUGUUUUCCCUUUGGUCUGGGUUGUGUGGCUUUUGGGGGAUGCGUGUGAGGGGGCUAUGUGUU | 1.05
AGCACCUACUGUGUUCUCAACACCGUGCCACCUAUAGAAGAUGAUCAUGGGAACAGCAAUAGUAGUCAUGUAAAAAUCUUUUUACCGAAAAAGCUGCUUGAAUGUCUGCCGAAAUGUUCA | 0.123

For quick reference, copied from above (set 2):
Oligonucleotide | RBNS enrichment (R)
UAAGACCCUGCCCCACUCUCUGAGCUGCCACUAGAGCUGCCACCUUCCCUCCUGUAAUUAUUUUCUAUUUUUGUAAACUUGUUGCAUUUUUAUAUGAUUUUCUUGACUGC | 1.36
CUGUGUAGCCCUGGCUGUCCUGGAACUCGCUCUGUAGACCAGGCUGGCCUCAAACUUAGAGAUCUGCCUGACUCUGCCUUUGAGGGCUGGGACGAAUGCCACCACUGCCC | 0.311
AUUCUUACUUGUUAGAAAUGUAGAAUGAACUUUGUUUGUAAUCCUUAAAUUAAAAUGUGGUAAGUAGGAAGCAAGAACUUAUUCUGUGUUUUUACGCAGCCAUACACUUA | 0.362
GGGCAGGGCCCAUCCUAAGCAGCUUCCAAGUCCCACAAAGGUGGCUUGUGGGAGGAUUUGGAAGGAGCUGCAUUGUGGGCGGGGAGUGUGUGGGUUGGGUUCGUACCAGC | 0.801
ACACGCAUUGUCCUUGUCAUUUGGGCCCCGAGCUCUGACCCUCGUGUCUGACGCGGCCACCUCUUUCUGGAGGGGCUGAGGACAGAUGUGCCUGCUUGUGGAGACCAGGC | 0.557
GGGACACCUAGGUGGGAGCAUCGCUUGAAGCCAGGAGUUCAAGACCAGCUUGGGCAACGUAGUGAGACCCCUAUCUCUACAAAAAAUAAAAAAAUUAGCUGGGUGUGAUG | 0.674
CUGGACACUUCAGUCCAGCUCUCUCCUGACUGGGGCUUGCGACUCACAGGAUUGCAUCGUCCCAGCUGCUAACUUGGGGCCGGGGCCCCUCCCUUCCACAUAUACCUUGG | 0.269
GAAAUUUACAUAUCAAUGUUUCUACAGUAUUGUUUGCUAAUUUUUAAAUAAAGUCAUGAUCAGUGUGCAUUUGUGAUUAUAUGUGUACUCAUUCUCUUACCUAGCGAACA | 0.407
